Measurements from different studies.
Numbers after ± are the reported error.
CNR1: Cannabinoid receptor 1 (CNR1, Homo sapiens, UniProt P21554)
UniProt P21554, sequence (whole entry, looked up): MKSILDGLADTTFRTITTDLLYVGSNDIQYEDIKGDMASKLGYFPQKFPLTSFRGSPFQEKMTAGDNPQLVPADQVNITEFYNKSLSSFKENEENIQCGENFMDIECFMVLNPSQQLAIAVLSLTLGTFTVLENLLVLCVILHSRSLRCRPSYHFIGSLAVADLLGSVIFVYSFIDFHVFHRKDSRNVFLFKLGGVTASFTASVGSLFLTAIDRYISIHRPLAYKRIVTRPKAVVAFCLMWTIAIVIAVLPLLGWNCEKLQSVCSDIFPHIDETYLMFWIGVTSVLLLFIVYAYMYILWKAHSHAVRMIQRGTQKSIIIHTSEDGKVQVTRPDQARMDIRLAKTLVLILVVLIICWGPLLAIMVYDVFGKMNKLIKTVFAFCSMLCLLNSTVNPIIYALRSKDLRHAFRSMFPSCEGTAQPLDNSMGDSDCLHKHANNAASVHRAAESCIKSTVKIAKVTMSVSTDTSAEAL
ADRA2C: Alpha-2C adrenergic receptor (ADRA2C, Homo sapiens, UniProt P18825)
UniProt P18825, sequence (whole entry, looked up): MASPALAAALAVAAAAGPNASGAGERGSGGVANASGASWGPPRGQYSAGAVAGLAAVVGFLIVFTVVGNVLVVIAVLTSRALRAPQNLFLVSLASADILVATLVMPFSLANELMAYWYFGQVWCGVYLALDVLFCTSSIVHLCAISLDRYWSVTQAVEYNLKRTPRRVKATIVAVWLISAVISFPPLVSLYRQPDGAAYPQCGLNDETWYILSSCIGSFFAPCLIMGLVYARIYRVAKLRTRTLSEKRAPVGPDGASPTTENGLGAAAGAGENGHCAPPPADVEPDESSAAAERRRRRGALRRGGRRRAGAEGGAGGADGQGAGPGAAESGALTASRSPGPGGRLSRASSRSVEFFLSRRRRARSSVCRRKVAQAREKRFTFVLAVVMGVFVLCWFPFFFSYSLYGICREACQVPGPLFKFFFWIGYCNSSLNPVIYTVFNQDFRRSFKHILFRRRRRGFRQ
Slc6a3: Sodium-dependent dopamine transporter (Slc6a3, Rattus norvegicus, UniProt P23977)
UniProt P23977, sequence (whole entry, looked up): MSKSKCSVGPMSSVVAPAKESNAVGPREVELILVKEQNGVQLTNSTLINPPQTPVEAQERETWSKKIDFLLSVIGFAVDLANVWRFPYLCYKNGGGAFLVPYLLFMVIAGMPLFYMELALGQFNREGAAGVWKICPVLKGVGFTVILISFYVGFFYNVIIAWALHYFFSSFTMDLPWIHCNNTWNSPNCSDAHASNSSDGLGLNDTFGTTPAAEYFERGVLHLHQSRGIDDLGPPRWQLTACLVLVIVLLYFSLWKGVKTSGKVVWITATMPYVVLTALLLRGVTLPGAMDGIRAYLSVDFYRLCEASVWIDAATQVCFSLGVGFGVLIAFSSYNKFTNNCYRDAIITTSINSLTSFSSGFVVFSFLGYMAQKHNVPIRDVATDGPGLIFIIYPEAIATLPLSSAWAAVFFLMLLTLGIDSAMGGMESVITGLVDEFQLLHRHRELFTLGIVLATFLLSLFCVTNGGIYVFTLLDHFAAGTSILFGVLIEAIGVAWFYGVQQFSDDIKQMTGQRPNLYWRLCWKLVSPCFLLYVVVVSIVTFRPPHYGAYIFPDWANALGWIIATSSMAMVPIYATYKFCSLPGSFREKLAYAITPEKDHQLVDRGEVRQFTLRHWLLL
UniProt P18508, sequence (whole entry, looked up): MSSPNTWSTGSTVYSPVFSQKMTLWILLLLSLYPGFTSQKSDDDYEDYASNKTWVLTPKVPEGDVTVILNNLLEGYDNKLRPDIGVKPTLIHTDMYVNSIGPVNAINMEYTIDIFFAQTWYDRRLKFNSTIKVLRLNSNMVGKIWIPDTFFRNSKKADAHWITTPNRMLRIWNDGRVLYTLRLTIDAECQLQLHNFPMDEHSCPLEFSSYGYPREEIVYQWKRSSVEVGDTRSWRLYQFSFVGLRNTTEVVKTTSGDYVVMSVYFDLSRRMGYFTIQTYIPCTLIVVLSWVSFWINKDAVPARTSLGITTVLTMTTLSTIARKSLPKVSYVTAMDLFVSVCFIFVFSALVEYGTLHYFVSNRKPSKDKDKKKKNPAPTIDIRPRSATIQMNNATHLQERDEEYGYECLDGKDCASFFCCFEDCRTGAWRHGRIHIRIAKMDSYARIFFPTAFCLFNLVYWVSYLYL
UniProt P62813, sequence (whole entry, looked up): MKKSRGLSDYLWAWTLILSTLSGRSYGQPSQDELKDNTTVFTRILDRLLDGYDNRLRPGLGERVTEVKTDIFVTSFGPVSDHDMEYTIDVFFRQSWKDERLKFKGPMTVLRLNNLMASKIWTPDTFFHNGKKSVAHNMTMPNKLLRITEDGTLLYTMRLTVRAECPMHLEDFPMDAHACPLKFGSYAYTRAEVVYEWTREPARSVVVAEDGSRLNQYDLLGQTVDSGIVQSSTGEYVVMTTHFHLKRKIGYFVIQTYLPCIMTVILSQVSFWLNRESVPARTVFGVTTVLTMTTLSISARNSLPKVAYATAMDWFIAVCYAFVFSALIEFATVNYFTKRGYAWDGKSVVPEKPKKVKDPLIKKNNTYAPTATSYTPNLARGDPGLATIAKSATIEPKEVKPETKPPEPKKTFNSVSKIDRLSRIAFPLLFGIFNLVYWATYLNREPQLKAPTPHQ
UniProt P63079, sequence (whole entry, looked up): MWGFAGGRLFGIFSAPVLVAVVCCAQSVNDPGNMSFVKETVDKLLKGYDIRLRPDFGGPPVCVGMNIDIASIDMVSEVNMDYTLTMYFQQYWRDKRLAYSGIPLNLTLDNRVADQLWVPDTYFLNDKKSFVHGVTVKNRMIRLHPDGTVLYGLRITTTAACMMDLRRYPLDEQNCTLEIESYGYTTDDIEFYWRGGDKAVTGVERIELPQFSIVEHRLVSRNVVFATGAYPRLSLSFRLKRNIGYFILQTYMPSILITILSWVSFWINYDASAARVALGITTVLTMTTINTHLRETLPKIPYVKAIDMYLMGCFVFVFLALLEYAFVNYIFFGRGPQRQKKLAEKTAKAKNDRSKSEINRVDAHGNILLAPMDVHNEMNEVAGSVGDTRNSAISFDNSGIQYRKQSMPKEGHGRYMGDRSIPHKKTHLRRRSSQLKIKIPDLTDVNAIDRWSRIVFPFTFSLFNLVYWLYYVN
UniProt P22001, sequence (whole entry, looked up): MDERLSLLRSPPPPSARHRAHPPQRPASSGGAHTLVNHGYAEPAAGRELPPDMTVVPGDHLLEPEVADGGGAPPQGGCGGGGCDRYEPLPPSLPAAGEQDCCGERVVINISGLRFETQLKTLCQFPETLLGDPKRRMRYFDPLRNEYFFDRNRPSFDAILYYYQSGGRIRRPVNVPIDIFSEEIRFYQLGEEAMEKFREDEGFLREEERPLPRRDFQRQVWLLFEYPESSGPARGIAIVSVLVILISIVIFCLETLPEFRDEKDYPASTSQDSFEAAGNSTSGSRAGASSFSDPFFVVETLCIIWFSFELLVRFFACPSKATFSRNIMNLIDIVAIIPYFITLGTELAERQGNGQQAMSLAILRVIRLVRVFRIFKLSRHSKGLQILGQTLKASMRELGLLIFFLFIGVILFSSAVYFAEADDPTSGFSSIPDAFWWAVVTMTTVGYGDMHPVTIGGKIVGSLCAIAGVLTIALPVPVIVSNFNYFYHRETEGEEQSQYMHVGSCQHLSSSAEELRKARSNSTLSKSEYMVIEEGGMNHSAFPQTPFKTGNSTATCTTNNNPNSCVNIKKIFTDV
UniProt Q7RTT9, sequence (whole entry, looked up): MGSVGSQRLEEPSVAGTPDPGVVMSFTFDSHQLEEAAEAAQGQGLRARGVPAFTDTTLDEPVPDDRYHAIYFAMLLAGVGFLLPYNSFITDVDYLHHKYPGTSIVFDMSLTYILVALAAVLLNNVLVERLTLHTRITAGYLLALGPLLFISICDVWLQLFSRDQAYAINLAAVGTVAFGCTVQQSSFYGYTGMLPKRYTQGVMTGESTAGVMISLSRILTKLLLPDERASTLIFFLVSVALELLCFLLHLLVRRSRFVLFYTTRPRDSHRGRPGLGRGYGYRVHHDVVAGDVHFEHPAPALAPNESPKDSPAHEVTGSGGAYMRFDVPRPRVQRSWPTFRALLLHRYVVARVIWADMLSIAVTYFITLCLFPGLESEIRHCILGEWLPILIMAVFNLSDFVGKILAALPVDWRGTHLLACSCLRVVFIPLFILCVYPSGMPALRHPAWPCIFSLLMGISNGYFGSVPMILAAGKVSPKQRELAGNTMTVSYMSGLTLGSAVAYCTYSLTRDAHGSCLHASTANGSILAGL
UniProt O50406, sequence (whole entry, looked up): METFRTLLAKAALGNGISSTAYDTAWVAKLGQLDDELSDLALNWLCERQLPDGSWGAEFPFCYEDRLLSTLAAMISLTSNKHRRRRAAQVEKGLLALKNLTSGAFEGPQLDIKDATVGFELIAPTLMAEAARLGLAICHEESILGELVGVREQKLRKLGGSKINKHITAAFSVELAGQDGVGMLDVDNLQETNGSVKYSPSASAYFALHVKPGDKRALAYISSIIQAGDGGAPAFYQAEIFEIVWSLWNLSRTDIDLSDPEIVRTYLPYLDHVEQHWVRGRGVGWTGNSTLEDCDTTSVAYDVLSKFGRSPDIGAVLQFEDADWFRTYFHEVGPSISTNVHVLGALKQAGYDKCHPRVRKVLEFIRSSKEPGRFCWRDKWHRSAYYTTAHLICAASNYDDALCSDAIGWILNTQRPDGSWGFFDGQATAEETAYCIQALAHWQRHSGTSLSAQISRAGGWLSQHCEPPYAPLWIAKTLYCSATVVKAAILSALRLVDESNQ
UniProt P9WJM9, sequence (whole entry, looked up): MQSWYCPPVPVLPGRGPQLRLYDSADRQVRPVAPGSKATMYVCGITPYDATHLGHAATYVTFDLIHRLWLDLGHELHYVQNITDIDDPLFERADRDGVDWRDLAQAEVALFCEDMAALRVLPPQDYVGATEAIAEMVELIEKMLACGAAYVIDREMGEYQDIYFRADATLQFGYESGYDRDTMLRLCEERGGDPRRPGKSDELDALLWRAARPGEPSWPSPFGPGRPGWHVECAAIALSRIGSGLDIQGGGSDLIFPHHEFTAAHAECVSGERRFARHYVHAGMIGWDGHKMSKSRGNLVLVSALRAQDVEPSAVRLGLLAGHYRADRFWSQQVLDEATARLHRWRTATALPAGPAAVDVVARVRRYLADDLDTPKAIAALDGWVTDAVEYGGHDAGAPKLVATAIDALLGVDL

CC1(C)C(C(=O)c2cn(CCCCCF)c3ccccc23)C1(C)C  Emax (CNR1; GIRK channel response, agonist; AtT20 expressing CB1; reference: WIN 55212-2 10 µM): 53 ± 2.6%
C[C@]12CC[C@H]3[C@@H](CCC4=CC(=O)CC[C@@]43C)[C@@H]1CC[C@@H]2O  Km (CYP3A1/2, rat; substrate, substrate depletion, LC-MS/MS; rat liver microsomes; 30 min, pH 7.4, 37 °C, together with: NADPH 1 mM, probe cocktail): 44.1 µM
CC1N=C(c2ccccc2F)c2cc(NC(C)(C)C)ccc2NC1=O (centres unmarked)  inhibition (ADRA2C; ligand displacement, radioligand; 10 µM): 35%
Nc1ncnc2c1ncn2[C@@H]1O[C@H](COP(=O)(O)OP(=O)(O)OP(O)(O)=S)[C@@H](O)[C@H]1O  fold change (fadD23 (Mycobacterium tuberculosis, UniProt P9WQ47); ATP probe labelling, competitor, chemoproteomics; Mycobacterium tuberculosis, lysate; 500 µM; reference: untreated): 5 fold
NC(=O)OC[C@H](N)Cc1ccccc1  Kb (HRH3 (Homo sapiens, UniProt Q9Y5N1); antagonist; membranes expressing H3 receptor; together with: (R)-α-methylhistamine 1 µM): inactive
C[C@]12CCC(=O)CC1=CC[C@@H]1[C@@H]2CC[C@]2(C)C(=O)CC[C@@H]12  Km (HSD3B1 (Homo sapiens, UniProt P14060, H157Y); substrate): 27.9 µM
C[n+]1ccc(-c2ccccc2)cc1  Km (SLC29A4 (Homo sapiens, UniProt Q7RTT9); transporter uptake, substrate, radiometric): 43.6 µM
CCCC(C)(COC(N)=O)COC(=O)NC(C)C (centres unmarked)  efficacy (Gamma-aminobutyric acid receptor subunit alpha-1/beta-3/gamma-2 (Rattus norvegicus, UniProt P18508+P62813+P63079); ion current, positive modulator, whole-cell patch clamp; HEK293; together with: GABA EC20; reference: GABA EC20 response): 200 ± 9.5%
CNC(C)C(=O)c1ccccc1 (centres unmarked)  selectivity ratio (Slc6a3; substrate release; rat brain synaptosomes; reference: SERT EC50 over target EC50): 309
CNC(C)Cc1ccc2c(c1)OCO2 (racemic)  selectivity ratio (Slc6a3; [3H]MPP+ release, releaser; rat brain synaptosomes; reference: DAT over SERT, higher = more DAT-selective): 0.71
NC(=O)[C@H](Cc1ccccc1)NC(=O)c1nn(Cc2ccc(F)cc2)c2ccccc12  Emax (CNR1; calcium mobilization, agonist; CHO-K1 expressing Gαq16; reference: CP55,940 maximum): 115 ± 2%
CC(C)[C@@H]1NC(=O)[C@@H]2CSSC[C@H](NC(=O)[C@@H](N)CCCCN)C(=O)N[C@@H](CCCNC(=N)N)C(=O)N[C@@H](CCC(=O)O)C(=O)N[C@H]3CSSC[C@H](NC(=O)[C@H](CCCCN)NC(=O)CNC(=O)[C@H](CC(N)=O)NC1=O)C(=O)N[C@@H](C(C)C)C(=O)N[C@H](C(=O)N1CCC[C@H]1C(=O)N[C@@H](C)C(=O)O)CSSC[C@H](NC(=O)[C@H](CO)NC(=O)[C@@H]1CCCN1C(=O)[C@H](CO)NC(=O)[C@H]([C@@H](C)O)NC(=O)[C@H](CC(N)=O)NC(=O)CNC3=O)C(=O)N[C@@H](Cc1ccc(O)cc1)C(=O)N[C@@H](Cc1ccccc1)C(=O)N[C@@H](CO)C(=O)NCC(=O)N[C@@H](CC(N)=O)C(=O)N2  activation threshold voltage (KCNA3 (Homo sapiens, UniProt P22001); whole-cell patch clamp, voltage ramp; activated human T lymphocytes; 2 nM, 200 ms ramp, equilibrium block): ~-40 mV
CC(N)Cc1ccc2c(c1)OCO2 (racemic)  selectivity ratio (Slc6a3; [3H]MPP+ release, releaser; rat brain synaptosomes; reference: DAT over SERT, higher = more DAT-selective): 1.53
CC(=CCCC(C)=CCSP(=O)(O)OP(=O)(O)O)CCC=C(C)CCCN(C)C  IC50 (Type B diterpene cyclase (Mycobacterium tuberculosis, UniProt O50406); enzyme activity, inhibitor, measured: HPP from GGPP): 0.1 nM
N[C@H]1[C@@H](O[C@@H]2[C@H](O)[C@H](O)[C@@H](O)[C@H](O)[C@H]2O)O[C@H](CO)[C@@H](O)[C@@H]1O  Km (L-cysteine:1D-myo-inositol 2-amino-2-deoxy-alpha-D-glucopyranoside ligase (Mycobacterium tuberculosis, UniProt P9WJM9); substrate; together with: other substrates saturating): 710 ± 170 µM
N[C@@H](Cc1c[nH]c2ccccc12)C(=O)O  Km (Tryptophan decarboxylase (Clostridium sporogenes, UniProt J7SZ64); decarboxylation, substrate, HPLC; Clostridium sporogenes, crude extract; pH 7.0, 37 °C): 2200 ± 100 µM
CNC(C)Cc1ccc2ccoc2c1 (centres unmarked)  selectivity ratio (Slc6a3; [3H]MPP+ release, releaser; rat brain synaptosomes; reference: DAT over SERT, higher = more DAT-selective): 1.65
CCN(C(C)=O)c1cccc(-c2ccnc3c(C#N)cnn23)c1  potentiation score (GABA-A receptor; alpha-1/beta-2/gamma-2 (Rattus norvegicus, UniProt P18508+P62813+P63138); GABA-evoked current, positive modulator, automated patch clamp; HEK293; 10 µM, together with: GABA, EC30; reference: 0.4 µM GABA response, direction not given): > 0.5
C[C@]12CC[C@H](OS(=O)(=O)[O-])CC1=CC[C@@H]1[C@@H]2CC[C@]2(C)C(=O)CC[C@@H]12.[Na+]  Vmax (sulfatase, human liver microsomes; substrate; pH 7.4, 37 °C): 2 ± 0.2 nmol/min/mg
CC1N=C(c2ccccc2F)c2cc(NC3CCCCC3)ccc2NC1=O (centres unmarked)  inhibition (ADRA2C; ligand displacement, radioligand; 10 µM): 80%

For quick reference, copied from above:
CNC(C)Cc1ccc2ccoc2c1 (centres unmarked)  selectivity ratio (Slc6a3; [3H]MPP+ release, releaser; rat brain synaptosomes; reference: DAT over SERT, higher = more DAT-selective): 1.65
NC(=O)[C@H](Cc1ccccc1)NC(=O)c1nn(Cc2ccc(F)cc2)c2ccccc12  Emax (CNR1; calcium mobilization, agonist; CHO-K1 expressing Gαq16; reference: CP55,940 maximum): 115 ± 2%
